Results gathered from unrelated publications.
A part holds a random share of what one study measured. Positions count from the first letter of the parent shown.

Block 1
Target: Interferon regulatory factor 3, full length, phosphomimetic (IRF3, Homo sapiens, UniProt Q14653, residues 1-427, S386D/S396D/S398D/S402D/T404D/S405D)
Chain of UniProt Q14653 (whole entry, unmodified, looked up): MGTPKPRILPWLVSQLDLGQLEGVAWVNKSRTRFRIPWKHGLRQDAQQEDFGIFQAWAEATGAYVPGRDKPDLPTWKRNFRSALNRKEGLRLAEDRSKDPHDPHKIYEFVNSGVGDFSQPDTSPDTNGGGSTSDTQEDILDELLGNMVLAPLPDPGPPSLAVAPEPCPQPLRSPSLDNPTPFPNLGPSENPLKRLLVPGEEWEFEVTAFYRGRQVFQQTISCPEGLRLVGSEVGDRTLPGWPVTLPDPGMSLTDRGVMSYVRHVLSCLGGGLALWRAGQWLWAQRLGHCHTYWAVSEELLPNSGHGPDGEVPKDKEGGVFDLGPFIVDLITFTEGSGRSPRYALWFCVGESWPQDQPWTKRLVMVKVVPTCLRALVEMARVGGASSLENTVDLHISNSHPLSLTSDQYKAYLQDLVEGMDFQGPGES
Technique: protein-binding microarray
Form: double-stranded DNA, one strand shown
Sample: in vitro
Concentration: 2540 nM top
Notes: 60-bp whole probe
Together with: salmon DNA 0.4 mg/ml
Relative to: random background probes
Direction: higher = stronger binding
Quantity: fitted relative affinity
Shared flanks, not repeated: GCCTAGCAC … GTCTTGATTCGCTTGACGCTGCTG
GACGGTATCGACTTTCGGGAAGTGCTA: 1.34 z-score
CTAGATTTCGGGACTGGATTAGTGCTA: 1.57 z-score
TTAAATTTCGGGACTGGATTAGTGCTA: 1.33 z-score
GACGGACTGCGTTTCGGGACGTGCTAG: 1.03 z-score
TTAGGTTTCGGTTCCGGGTAGTGCTAG: 10.3 z-score
TTAGGACTGAGTCTCGATTAGTGCTAG: -0.453 z-score
TTAGGTATACTTATCCTTTAGTGCTAG: 0.682 z-score
TCAGTTTTCCTTCATGTACTGTGCTAG: 4.07 z-score

Block 2
Target: inorganic phosphate, free oxyanion
Technique: microfluidic competitive inhibition
Sample: in vitro, cell-free expressed
Concentration: not given
Notes: derived from inhibition constants, unchanged parent 615000 nM
Direction: lower = stronger binding
Quantity: phosphate dissociation constant
Parent: PafA, mature enzyme, eGFP fusion (Elizabethkingia meningoseptica, UniProt Q9KJX5); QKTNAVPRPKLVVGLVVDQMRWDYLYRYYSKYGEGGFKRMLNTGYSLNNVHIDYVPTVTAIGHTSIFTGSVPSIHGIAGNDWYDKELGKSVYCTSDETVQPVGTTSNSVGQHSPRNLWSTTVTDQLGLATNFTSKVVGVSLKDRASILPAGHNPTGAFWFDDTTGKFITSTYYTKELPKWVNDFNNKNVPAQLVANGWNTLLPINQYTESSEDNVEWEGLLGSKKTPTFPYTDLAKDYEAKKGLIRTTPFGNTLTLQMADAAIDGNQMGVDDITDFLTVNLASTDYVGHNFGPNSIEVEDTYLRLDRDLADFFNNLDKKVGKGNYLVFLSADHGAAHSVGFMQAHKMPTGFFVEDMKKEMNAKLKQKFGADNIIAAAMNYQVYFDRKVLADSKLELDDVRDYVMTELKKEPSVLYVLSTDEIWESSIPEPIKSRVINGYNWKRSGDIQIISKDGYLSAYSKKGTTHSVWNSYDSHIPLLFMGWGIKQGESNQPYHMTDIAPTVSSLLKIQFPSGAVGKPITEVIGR
I273G: 610 µM
F158G: 573 µM
V287A: 839 µM
T133G: 530 µM
Y302V: 1010 µM

Block 3
Target: CREBZF, bZIP domain (human)
Technique: DHFR protein complementation
Sample: yeast
Notes: single substitutions, most at no-binding floor
Relative to: wild-type JUN-FOS pair
Direction: higher = stronger binding
Quantity: binding fitness
Parent: JUN, bZIP domain (human); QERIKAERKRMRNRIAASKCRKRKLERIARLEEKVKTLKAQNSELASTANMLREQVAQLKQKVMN; partner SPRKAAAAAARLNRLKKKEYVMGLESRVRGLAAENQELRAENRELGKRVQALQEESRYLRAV
N42G: -1.46 natural log
L38C: -1.54 natural log
K34G: -1.49 natural log
S47I: -1.41 natural log
E33F: -1.49 natural log
E32W: -1.51 natural log
L52T: -1.52 natural log
A40H: -1.47 natural log

Block 4
Target: UDP-N-acetylglucosamine--peptide N-acetylglucosaminyltransferase 110 kDa subunit (OGT, Homo sapiens, UniProt O15294)
Chain of UniProt O15294 (whole entry, looked up): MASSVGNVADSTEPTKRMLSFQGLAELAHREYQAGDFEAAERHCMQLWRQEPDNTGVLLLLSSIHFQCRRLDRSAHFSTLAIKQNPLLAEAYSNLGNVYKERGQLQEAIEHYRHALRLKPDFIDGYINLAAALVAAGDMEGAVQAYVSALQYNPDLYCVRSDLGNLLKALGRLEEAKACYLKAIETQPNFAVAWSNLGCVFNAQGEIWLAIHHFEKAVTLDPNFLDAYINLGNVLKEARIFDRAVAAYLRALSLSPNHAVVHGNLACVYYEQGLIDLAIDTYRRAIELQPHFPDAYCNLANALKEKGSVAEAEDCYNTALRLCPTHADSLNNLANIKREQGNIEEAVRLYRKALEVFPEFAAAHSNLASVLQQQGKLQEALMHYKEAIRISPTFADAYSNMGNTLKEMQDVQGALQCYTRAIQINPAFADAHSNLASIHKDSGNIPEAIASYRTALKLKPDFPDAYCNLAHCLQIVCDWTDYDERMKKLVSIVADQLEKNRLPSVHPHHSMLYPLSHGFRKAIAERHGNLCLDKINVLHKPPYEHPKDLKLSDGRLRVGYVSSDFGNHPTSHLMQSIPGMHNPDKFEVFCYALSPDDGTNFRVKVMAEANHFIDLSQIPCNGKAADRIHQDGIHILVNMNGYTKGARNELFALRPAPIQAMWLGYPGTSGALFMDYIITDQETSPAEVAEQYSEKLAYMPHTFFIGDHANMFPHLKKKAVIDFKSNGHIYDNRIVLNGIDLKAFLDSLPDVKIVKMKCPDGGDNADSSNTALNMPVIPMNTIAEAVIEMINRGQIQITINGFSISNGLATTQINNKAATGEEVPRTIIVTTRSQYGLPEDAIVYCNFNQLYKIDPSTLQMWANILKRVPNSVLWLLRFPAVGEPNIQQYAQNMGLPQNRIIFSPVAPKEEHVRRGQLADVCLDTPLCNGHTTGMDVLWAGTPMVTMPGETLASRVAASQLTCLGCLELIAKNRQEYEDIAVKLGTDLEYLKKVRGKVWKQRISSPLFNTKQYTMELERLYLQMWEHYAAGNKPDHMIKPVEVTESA
Read-out: binding
Technique: phage display NGS
Form: peptide
Relative to: input library
Quantity: minimum log2 enrichment ratio
HTYHHLLHAEDGHSY: 3.89
YTSHYPVHVHHYPQ: 3.64
HREQHDMTYHMIHSR: 2.19
HEPKHAEMESYYNIH: 1.38
FKDGRHAERHFFHQH: 3.24
HFQIHQHHFMGDDD: 3.27
QFLHNHSDEKSHPHY: 2.3
HQQHDHHKDNNGQFM: 1.45
SMFYPMYRIDIPEKS: 3.66
HLHQDHISHPFEHEA: 2.52
HQIEWHHTSSNYFH: 2.01
ESKQTRFHPQYQITI: 4.25
QMQSPYSPQYQITV: 3.85
YTDNEEIIFHHHQVA: 1.89
HTYDLTGPSHWFTRI: 1.17
HNFFEYHTANRHQHF: 3.28
TSFAPEYIIDYIRPV: 3.99
QPQIHLHHHPSYTGR: 1.88
TQSFTQFMPQYPIFY: 3.03

Further values, each from its own experiment
KRT8 (Homo sapiens, UniProt P05787)
interaction screen (DES (Homo sapiens, UniProt P17661); cross-linking MS; hits only): cross-linked

Repeated from above (block 1):
GACGGTATCGACTTTCGGGAAGTGCTA: 1.34 z-score
CTAGATTTCGGGACTGGATTAGTGCTA: 1.57 z-score
TTAAATTTCGGGACTGGATTAGTGCTA: 1.33 z-score
GACGGACTGCGTTTCGGGACGTGCTAG: 1.03 z-score
TTAGGTTTCGGTTCCGGGTAGTGCTAG: 10.3 z-score
TTAGGACTGAGTCTCGATTAGTGCTAG: -0.453 z-score
